Measurements of several laboratories.
Each line is one published result; not all experiments were run side by side. Numbers after ± are the reported error.
Matrix: plasma

Structure (SMILES)	system	conditions	Cmax
CC(=O)N[C@H](CSSC[C@H](N)C(=O)O)C(=O)N[C@H](C)C(=O)N[C@H](CCCNC(=N)N)C(=O)N[C@H](CCCNC(=N)N)C(=O)N[C@H](CCCNC(=N)N)C(=O)N[C@H](C)C(=O)N[C@H](CCCNC(=N)N)C(N)=O	male human	intravenous, 2 mg, single dose, healthy volunteers	0.168 µg/mL
CC(C)(O)c1ncc([S@](N)(=O)=NC(=O)Nc2c3c(cc4c2CCC4)CCC3)s1	human	oral, 3 mg, single dose, fasted, healthy volunteers	0.451 µg/mL
O=C(CCc1ccc(CNC(C(=O)OC2CCCC2)C2CCCCC2)cn1)NO (stereo not drawn)	human	oral, 40 mg, single dose, patients	0.21 µg/mL
CN1CCC[C@]1(C)/C=C/S(=O)(=O)NC(=O)Nc1c2c(cc3c1CCC3)CCC2	human	oral, 25 mg, single dose, healthy volunteers	3.2 µg/mL
Cc1ccc(OCC(=O)O)cc1	Sprague-Dawley rat Crl:CD(SD), female	oral, 10 mg/kg/day of parent drug, day 90, 90-day repeated dosing	1.67 ± 0.226 µg/mL
CC12CC(c3ccc(S(C)(=O)=O)cc3)C3=C4CCC(=O)C=C4CCC3C1CCC2(O)C(F)(F)C(F)(F)F (stereo not drawn)	human	oral, 5 mg, single dose, fasted	~0.025 µg/mL
[2H]C([2H])([2H])NC(=O)c1ccc(N2C(=S)N(c3ccc(C#N)c(C(F)(F)F)c3)C(=O)C2(C)C)cc1F	male human	oral, 40 mg, single dose, fasted	1.48 µg/mL
CC(=O)N[C@H](CC(=O)O)C(=O)N[C@H](Cc1c[nH]c2ccccc12)C(=O)N[C@H](Cc1ccccc1)C(=O)N[C@H](CCCCN)C(=O)N[C@H](C)C(=O)N[C@H](Cc1ccccc1)C(=O)N[C@H](Cc1ccc(O)cc1)C(=O)N[C@H](CC(=O)O)C(=O)N[C@H](CCCCN)C(=O)N[C@@H](C(=O)N[C@H](C)C(=O)N[C@H](CCC(=O)O)C(=O)N[C@H](CCCCN)C(=O)N[C@H](Cc1ccccc1)C(=O)N[C@H](CCCCN)C(=O)N[C@H](CCC(=O)O)C(=O)N[C@H](C)C(=O)N[C@H](Cc1ccccc1)C(N)=O)C(C)C	statin-treated high-risk CHD patients	oral, 500 mg daily, day 1, 0 to 2 h, mean, all subjects	0.0646 µg/mL
CC(C)[C@H](NC(=O)CNC(=O)[C@H](CCC(N)=O)NC(=O)[C@H](C)N)C(=O)O	male human	intravenous, 3 mg/kg, single dose	0.115 µg/mL

For quick reference, copied from above:
Structure (SMILES)	system	conditions	Cmax
CC(C)(O)c1ncc([S@](N)(=O)=NC(=O)Nc2c3c(cc4c2CCC4)CCC3)s1	human	oral, 3 mg, single dose, fasted, healthy volunteers	0.451 µg/mL
